Published values from different studies.
Each numbered part is a random draw from the data of one study; scales do not carry over between parts.

Study 1 — technique: universal PBM; molecule type: double-stranded DNA, one strand shown; medium: in vitro; tested at: 600 nM; reading: higher = stronger binding
Target: Sal-like protein 4, full length isoform A (SALL4, Homo sapiens, UniProt Q9UJQ4, residues 1-1053)
Sequence of UniProt Q9UJQ4 (whole entry, looked up): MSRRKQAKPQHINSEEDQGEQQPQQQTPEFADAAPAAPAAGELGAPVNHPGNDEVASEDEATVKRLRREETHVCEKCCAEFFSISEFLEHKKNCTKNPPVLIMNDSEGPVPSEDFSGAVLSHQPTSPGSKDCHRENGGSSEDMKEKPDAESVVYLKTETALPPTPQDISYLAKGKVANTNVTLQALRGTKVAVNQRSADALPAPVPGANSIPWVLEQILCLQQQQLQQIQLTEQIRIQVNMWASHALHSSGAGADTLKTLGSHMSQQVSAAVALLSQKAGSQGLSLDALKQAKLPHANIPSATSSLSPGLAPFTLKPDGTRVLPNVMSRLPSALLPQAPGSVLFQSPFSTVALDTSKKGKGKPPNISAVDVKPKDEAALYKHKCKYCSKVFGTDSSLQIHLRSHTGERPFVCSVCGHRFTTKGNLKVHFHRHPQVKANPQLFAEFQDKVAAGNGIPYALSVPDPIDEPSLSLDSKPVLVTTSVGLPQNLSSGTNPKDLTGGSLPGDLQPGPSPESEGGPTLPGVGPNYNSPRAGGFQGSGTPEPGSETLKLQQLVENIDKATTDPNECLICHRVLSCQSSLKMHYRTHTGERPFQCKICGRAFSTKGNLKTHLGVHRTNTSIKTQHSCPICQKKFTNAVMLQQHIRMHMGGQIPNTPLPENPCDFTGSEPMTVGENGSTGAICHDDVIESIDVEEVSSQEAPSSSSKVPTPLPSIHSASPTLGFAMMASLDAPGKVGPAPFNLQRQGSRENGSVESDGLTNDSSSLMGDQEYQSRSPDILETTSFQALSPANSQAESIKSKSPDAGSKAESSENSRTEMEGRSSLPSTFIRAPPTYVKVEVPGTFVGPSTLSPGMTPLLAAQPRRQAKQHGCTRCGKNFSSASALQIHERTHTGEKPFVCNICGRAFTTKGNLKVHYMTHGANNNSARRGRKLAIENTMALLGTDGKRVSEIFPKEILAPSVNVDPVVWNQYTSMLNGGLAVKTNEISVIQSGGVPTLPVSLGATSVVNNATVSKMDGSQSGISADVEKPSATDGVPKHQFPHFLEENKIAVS
Notes: 8-mer, flanks averaged, mean of replicates
Strand	E-score
AGTTATTC	0.28
GCCAGAGC	-0.303
GCTGGCCC	-0.414
AGACGTCT	-0.0727
AGTCGTTG	-0.206
CGGGGCTA	-0.312
TACGTTAA	0.153
AATGTCCT	0.14
GACGGCAC	-0.232
CTAGTTTA	0.123
ACAGAGGC	-0.151
ATGGACAT	0.136
CGCTCAGA	-0.215
AAGGGCAT	-0.00345
GAAATCAA	0.166
GACTTCGA	0.0796

Study 2 — technique: RNA Bind-n-Seq; molecule type: RNA; medium: in vitro; tested at: 200 nM; notes: whole 134-nt RNA, ends assumed; together with: 150 mM LiCl; relative to: input library; reading: higher = stronger binding; each molecule: 7-deaza-guanosine replaces G
Target: Ras GTPase-activating protein-binding protein 1, full length (G3BP1, Homo sapiens, UniProt Q13283)
Sequence of UniProt Q13283 (whole entry, looked up): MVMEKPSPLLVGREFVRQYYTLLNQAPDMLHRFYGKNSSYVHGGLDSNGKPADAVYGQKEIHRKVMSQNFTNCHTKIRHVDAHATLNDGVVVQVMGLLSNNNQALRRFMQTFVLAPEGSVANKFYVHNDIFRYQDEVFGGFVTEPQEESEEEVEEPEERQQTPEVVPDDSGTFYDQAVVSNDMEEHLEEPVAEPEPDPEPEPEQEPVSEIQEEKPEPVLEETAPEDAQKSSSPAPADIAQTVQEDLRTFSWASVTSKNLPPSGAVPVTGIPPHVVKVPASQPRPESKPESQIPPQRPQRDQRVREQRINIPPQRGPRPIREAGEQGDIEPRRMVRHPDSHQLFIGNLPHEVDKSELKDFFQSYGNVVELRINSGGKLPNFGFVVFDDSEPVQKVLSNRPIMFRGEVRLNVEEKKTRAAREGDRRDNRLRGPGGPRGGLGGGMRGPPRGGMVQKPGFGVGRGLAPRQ
Constant ends, left off below: GGGAGUUCUACAGUCCGACGAUC … UGGAAUUCUCGGGUGUCAAGG
Strand	log2 enrichment
UCAAGUCCUGUGCUACACAUCGUAUGUACCGAAUCGGUUUGGGUUUGGUUUGGGGAAAGUAUUAUGUUACGCCGUUCGGAUCUGCACUUC	-0.458
UGUGCUACACAUCGUAUGUACCGAAUCGGGAAAAAAAGGGAAAAAAAGGGGAAAAAAAGGGGAAAGUAUUAUGUUACGCCGUUCGGAUCU	0.277
UCCCGGGCGCUAGCCCACCUCCCACCCGCCUCUUGGCUCCUCUCCUCUAGGCCGUCGCUUUCGGGUUCUCUCAUCGCUUCGUCGUUCGCC	0.629
UAACUUUUGAGGAGGAUCUGAUGGAUAUGGCAGUGGACGUGGAUUUGGGGAUGGCUAUAAUGGGUAUGGAGGAGGACCUGGAGGUGGCAA	0.0149
UAACUUUAGAGGAGGAUCUGAUGGAUAUGGCAGUGGACGUGGAUUUGGGGAUGGCUAUAAUCGGUAUGGAGGAGGACCUGGAGGUGGCAA	0.298
UUGCUAACUUCAAGAUAGAGCCUCCUGGACUUUUCCGUGGCCGCGGCAACCACCCCAAGAUGGGCAUGCUGAAGAGACGAAUCAUGCCCG	0.42
ACCAUGCAGGUGGGCAUCUUUGGGAAGCGGGGCAAGGGGGGGAUAGGGAGGGGGGUAACACUUUGGGAACAGGUGGUCCCAGGUCGUUUC	0.125
GCAGGAAGUAAAAACAAAUGGAAAUGCUUCGGAUAGUGGCAGGGGUGGCGGUUGCUAAGGAAAGGGUGGGAUGGGAGUGGGUAAAGAGUU	0.145

Study 3 — technique: RNA Bind-n-Seq; molecule type: RNA; medium: in vitro; tested at: 365 nM; relative to: no-protein control; reading: higher = stronger binding
Target: RNA binding protein fox-1 homolog 2, RRM domain, GST-SBP tag (RBFOX2, Homo sapiens, UniProt O43251-10, residues 100-194)
Notes: natural RNA segment, single round, ends assumed
Constant ends, left off below: GGGAGUUCUACAGUCCGACGAUC … UGGAAUUCUCGGGUGCCAA
Construct (chain): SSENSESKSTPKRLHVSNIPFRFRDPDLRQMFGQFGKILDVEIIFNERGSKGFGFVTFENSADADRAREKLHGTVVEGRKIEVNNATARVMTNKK
Strand	RBNS enrichment (R)
AGUAGAUGUGGGUUUAUGACUGCCAAGUUUGCCCAGUACAGUAGUUUUUUAUCACUAAAAGUUGGACUCAUUGAUGGAGUCCUGUAGUAGUUUCAGUGUUAGAUACAGUU	0.478
GAUACCUUUAAGCCAGUGAAGGAUACUUGCGAUAGAAUCAUCCGCAACUCAGUGGCCAUUCUUCUGCCUUCCCAGACCUUAGUUUUAUAAAGCAUUGUCUGUUCCAGAGU	0.4
UGCACCAGGGUUGGCAUUGCUCCCACUGAGCCCUACUCCACCCUGUCCCUGCACUCCCUUGGUUGCCAAAAAAAUGAUAACUUAAAUCCCUUCCAGACUUAAGAAUUUUA	1.07
UUGGGUAAUAAGCUCAAGAGGGUUGACAUUUCAAACUGCCAAAAAUGAAAAUAUUCUAGUUAUUAAACUCUUGGUCUAGAAAUACUUCUGUCUGUAAACUUUGACAUCCA	1.15
UCAUCUAGUUAAAAAAAAGAGUGUUAGCAAAUGUGCCACUUCUCCAUAGUUUUUAAUCCCAAAGUUAUUUAAACAUCAGUAAGACAAGGUACCACUUCAUACAGUGAAAA	0.548
AUAUGCUUCUUAAUUAUCAAAUUAUAGUUUCCCAAUUGGGAAACUAAUUGGGGGUGGGUUACAAAACAUUUGAUCCUUGUAAAUACAUUGUACAGAAUAUUUAUUUUUUC	0.418
CUGAAGUGAGGAUUUAGUAUUUUUUAAAAAAGCAAAACAAGGUUCAGUAGUCCUCAGCAAUUCUCCAAGUUUCUCUCUUUGCCUAAAAUGGUCAUAGAUCUUGAUUUCUC	0.403
CCGGUUGGCCGGCUGGCCGGUCCACCCCGUCCCGGCCCCGCGCGUGCCCCCAGCGUGGGGCUAACGGGCGCCUUGUCUGUGUAUUUCUAUUUUGCAGCAGUACCAUCCCA	0.312

Study 4 — cell line: yeast with cyclin B3-Cln2 chimera; read-out: cell growth; mode: binder; technique: competitive growth deep sequencing; molecule type: peptide; tested at: concentration not given; notes: peptide tiling library; reading: direction not given
Sequence	growth enrichment score
RNRGPKLNAMLRLGVL	-2.5
PQWPCGKHKRVLIFAS	-0.507
TRRRLFVENDSP	0.712
DGCSPIKNWSPMRL	0.522
QNPCGSKACRRLFGPV	-0.328
FQDSGYNELKSCSFDN	0.164
TSPGPVLLHPSPSTTQ	0.623
VLPGGVPSPGASLTSM	-0.0592
NFETPEAETPIRSPFK	0.121
GAEELEDLVHFSVSEL	1.16
SGYLTDENEVGFRG	0.784
VRDLSYRLVFLACCVA	0.0894
VLVRTSACRSLFGPVD	0.246

Repeated from above (study 4):
Sequence	growth enrichment score
VLVRTSACRSLFGPVD	0.246
QNPCGSKACRRLFGPV	-0.328
DGCSPIKNWSPMRL	0.522
VRDLSYRLVFLACCVA	0.0894
VLPGGVPSPGASLTSM	-0.0592
FQDSGYNELKSCSFDN	0.164
TRRRLFVENDSP	0.712
